Published values collected from several papers.
Each line is one published result; not all experiments were run side by side. ± marks the error that the study gave.
Method: steady-state kinetics
B1: enzyme (Acinetobacter baumannii, UniProt D0CBC8); chain MALVLDGRALAKQIEENLLVRVEALKAKTGRTPILATILVGDDGASATYVRMKGNACRRVGMDSLKIELPQETTTEQLLAEIEKLNANPDVHGILLQHPVPAQIDERACFDAISLAKDVDGVTCLGFGRMAMGEAAYGSATPAGIMTILKENNIEIAGKHAVVVGRSAILGKPMAMMLLQANATVTICHSRTQNLPELVKQADIIVGAVGKAELIQKDWIKQGAVVVDAGFHPRDGGGVGDIQLQGIEEIASAYTPVPGGVGPMTITTLIRQTVEAAEKALG
B2: enzyme R116A (Acetivibrio thermocellus, UniProt A3DJ38); chain MKLTIPELSLVVLIGSSGSGKSTFAKKHFKPTEVISSDFCRGLVSDDENDQTVTGAAFDVLHYIVSKRLQLGKLTVVDATNVQESARKPLIEIAKDYHCFPVAVVFNLPEKVCQEANKNRTDRQVEEYVIRKHTQQLKKSIKGLQREGFRYVYILNSPEEVEEVVFERQP
B3: TcA (Trypanosoma cruzi, UniProt Q4DRC4); chain MFIRLFAREEEGEKEGKICHMPREYEFAEKILFTEEEIRTRIKEVAKRIADDYKGKGLRPYVNPLVLISVLKGSFMFTADLCRALCDFNVPVRMEFICVSSYGEGLTSSGQVRMLLDTRHSIEGHHVLIVEDIVDTALTLNYLYHMYFTRRPASLKTVVLLDKREGRRVPFSADYVVANIPNAFVIGYGLDYDDTYRELRDIVVLRPEVYAEREAARQKKQRAIGSADTDRDAKREFHSKY
B4: protein (Allochromatium vinosum, UniProt P45370); chain MFPIDIRPDKLTQEMLDYSRKLGQGMENLLNAEAIDTGVSPKQAVYSEDKLVLYRYDRPEGAPEAQPVPLLIVYALVNRPYMTDIQEDRSTIKGLLATGQDVYLIDWGYPDQADRALTLDDYINGYIDRCVDYLREAHGVDKVNLLGICQGGAFSLMYSALHPDKVRNLVTMVTPVDFKTPDNLLSAWVQNVDIDLAVDTMGNIPGELLNWTFLSLKPFSLTGQKYVNMVDLLDDPDKVKNFLRMEKWIFDSPDQAGETFRQFIKDFYQNNGFLNGGVVLGGQEVDLKDITCPVLNIFALQDHLVPPDASRALKGLTSSPDYTELAFPGGHIGIYVSGKAQKEVTPAIGKWLNER
B5: Tcur_2987 Y332L (Thermomonospora curvata, UniProt D1A807); chain ACSEERAAGARPSATQTTGTATEPFHGPHQAGIATPPQAHAVFLGLDLRKGTGRKELGRLMRLLTDDARRLTQGRPALADPEPDLAPLPSRLTFTFGFGPGLFKAAGLEKQRPEGLRPLPPFKVDRLEDRWSGGDLLVQICCDDPITLAHALRMTVKDARAFTRVRWVQRGFRRSPGVQSSGATQRNLMGQLDGTVNPVPGTADFDQAVWVQDGPEWLRGGTTLVLRRIRMELEKWDEADPAGKEFAVGRRLTSGAPLTGRHEHDEPDFDAVDSAGFPVIAENAHIRLAHVDSPRLRMLRRPYNLDEGLTADGRSDAGLLFAAYQADIDRQFIPVQRRLDEGGDLLNLWTTPIGSAVFAIPPGCDENGWIGQGLLG
B6: hdhb (Clostridium sardiniense, UniProt G9FRD6); chain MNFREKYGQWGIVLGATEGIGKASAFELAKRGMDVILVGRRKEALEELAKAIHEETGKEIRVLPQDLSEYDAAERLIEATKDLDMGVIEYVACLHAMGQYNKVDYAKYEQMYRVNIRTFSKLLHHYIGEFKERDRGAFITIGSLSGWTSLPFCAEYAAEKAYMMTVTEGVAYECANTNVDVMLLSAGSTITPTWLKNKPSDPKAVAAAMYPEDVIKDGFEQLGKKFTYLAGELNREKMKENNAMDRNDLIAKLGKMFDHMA
B7: Paox H64Q (Mus musculus, UniProt Q8C0L6); chain MAFPGPRVLVVGSGIAGLGAAQKLCSHRAAPHLRVLEATASAGGRIRSERCFGGVVELGAHWIQGPSQDNPVFQLAAEFGLLGEKELSEENQLVDTGGHVALPSMIWSSSGTSVSLELMTEMARLFYGLIERTREFLNESETPMASVGEFLKKEISQQVASWTEDDEDTRKRKLAILNTFFNIECCVSGTHSMDLVALAPFGEYTVLPGLDCILAGGYQGLTDRILASLPKDTVAFDKPVKTIHWNGSFQEAAFPGETFPVLVECEDGARLPAHHVIVTVPLGFLKEHQDTFFEPPLPAKKAEAIKKLGFGTNNKIFLEFEEPFWEPDCQFIQVVWEDTSPLQDTALSLQDTWFKKLIGFLVQPSFESSHVLCGFIAGLESEFMETLSDEEVLLSLTQVLRRVTGNPQLPAAKSVRRSQWHSAPYTRGSYSYVAVGSTGDDLDLMAQPLPEDGTGTQLQVLFAGEATHRTFYSTTHGALLSGWREADRLVSLWDSQVEQSRPRL
B8: enzyme A178R/D177A/M179H/P184R (Levilactobacillus brevis, UniProt Q03Q85); chain MKVTVVGCTHAGTFAIKQILAEHPDAEVTVYERNDVISFLSCGIALYLGGKVADPQGLFYSSPEELQKLGANVQMNHNVLAIDPDQKTVTVEDLTNHAQTTESYDKLVMTSGSWPIVPKIPGIDSDRVKLCKNWAHAQALIEDAKEAKRITVIGAGYIGAELAEAYSTTGHDVTLIARHARVMRKYFDADFTDVIEQDYRDHGVQLALGETVESFTDSATGLTIKTDKNSYETDLAILCIGFRPNTDLLKGKVDMAPNGAIITDDYMRSSNPDIFAAGDSAAVHYNPTHQNAYIPLATNAVRQGILVGKNLVKPTVKYMGTQSSSGLALYDRTIVSTGLTLAAAKQQGLNAEQVIVEDNYRPEFMPSTEPVLMSLVFDPDTHRILGGALMSKYDVSQSANTLSVCIQNENTIDDLAMVDMLFQPNFDRPFNYLNILAQAAQAKVAQSVNA
B9: ybiA (Escherichia coli, UniProt P30176); chain MPVRAQRIQHVMQDTIINFYSTSDDYGDFSNFAAWPIKVDGKTWPTSEHYFQAQKFLDEKYREEIRRVSSPMVAARMGRDRSKPLRKNWESVKEQVMRKALRAKFEQHAELRALLLATAPAKLVEHTENDAYWGDGGHGKGKNRLGYLLMELREQLAIEK
B10: carbamoyl phosphate synthetase large subunit M911E (Escherichia coli, UniProt P00968); chain PKRTDIKSILILGAGPIVIGQACEFDYSGAQACKALREEGYRVILVNSNPATIMTDPEMADATYIEPIHWEVVRKIIEKERPDAVLPTMGGQTALNCALELERQGVLEEFGVTMIGATADAIDKAEDRRRFDVAMKKIGLETARSGIAHTMEEALAVAADVGFPCIIRPSFTMGGSGGGIAYNREEFEEICARGLDLSPTKELLIDESLIGWKEYEMEVVRDKNDNCIIVCSIENFDAMGIHTGDSITVAPAQTLTDKEYQIMRNASMAVLREIGVETGGSNVQFAVNPKNGRLIVIEMNPRVSRSSALASKATGFPIAKVAAKLAVGYTLDELMNDITGGRTPASFEPSIDYVVTKIPRFNFEKFAGANDRLTTQMKSVGEVMAIGRTQQESLQKALRGLEVGATGFDPKVSLDDPEALTKIRRELKDAGADRIWYIADAFRAGLSVDGVFNLTNIDRWFLVQIEELVRLEEKVAEVGITGLNADFLRQLKRKGFADARLAKLAGVREAEIRKLRDQYDLHPVYKRVDTCAAEFATDTAYMYSTYEEECEANPSTDREKIMVLGGGPNRIGQGIEFDYCCVHASLALREDGYETIMVNCNPETVSTDYDTSDRLYFEPVTLEDVLEIVRIEKPKGVIVQYGGQTPLKLARALEAAGVPVIGTSPDAIDRAEDRERFQHAVERLKLKQPANATVTAIEMAVEKAKEIGYPLVVRPSYVLGGRAMEIVYDEADLRRYFQTAVSVSNDAPVLLDHFLDDAVEVDVDAICDGEMVLIGGIMEHIEQAGVHSGDSACSLPAYTLSQEIQDVMRQQVQKLAFELQVRGLMNVQFAVKNNEVYLIEVNPRAARTVPFVSKATGVPLAKVAARVMAGKSLAEQGVTKEVIPPYYSVKEVVLPFNKFPGVDPLLGPEERSTGEVMGVGRTFAEAFAKAQLGSNSTMKKHGRALLSVREGDKERVVDLAAKLLKQGFELDATHGTAIVLGEAGINPRLVNKVHEGRPHIQDRIKNGEYTYIINTTSGRRAIEDSRVIRRSALQYKVHYDTTLNGGFATAMALNADATEKVISVQEMHAQIK
B11: protein (Streptomyces toyocaensis, UniProt Q8KLK7); chain MTTVLPPLEDTDGLWAALTEAAASVEKLLATLPEHGARSSAERAEIAAAHDAARALRVRFLDTHADAVYDRLTDHRRVHLRLAELVEAAATAFPGLVPTQQQLAVERSLPQAAKEGHEIDQGIFLRAVLRSPLAGPHLLDAMLRPTPRALELLPEFVRTGEVEMEAVHLERRDGVARLTMCRDDRLNAEDGQQVDDMETAVDLALLDPGVRVGLLRGGVMSHPRYRGKRVFSAGINLKYLSQGGISLVDFLMRRELGYIHKLVRGVLTNDDRPGWWHSPRIEKPWVAAVDGFAIGGGAQLLLVFDRVLASSDAYFSLPAAKEGIIPGAANLRLGRFAGPRVSRQVILEGRRIWAKEPEARLLVDEVVEPDELDAAIERSLTRLDGDAVLANRRMLNLADESPDGFRAYMAEFALMQALRLYGHDVIDKVGRFGGRPPA
UniProt E1V931, sequence (whole entry, looked up): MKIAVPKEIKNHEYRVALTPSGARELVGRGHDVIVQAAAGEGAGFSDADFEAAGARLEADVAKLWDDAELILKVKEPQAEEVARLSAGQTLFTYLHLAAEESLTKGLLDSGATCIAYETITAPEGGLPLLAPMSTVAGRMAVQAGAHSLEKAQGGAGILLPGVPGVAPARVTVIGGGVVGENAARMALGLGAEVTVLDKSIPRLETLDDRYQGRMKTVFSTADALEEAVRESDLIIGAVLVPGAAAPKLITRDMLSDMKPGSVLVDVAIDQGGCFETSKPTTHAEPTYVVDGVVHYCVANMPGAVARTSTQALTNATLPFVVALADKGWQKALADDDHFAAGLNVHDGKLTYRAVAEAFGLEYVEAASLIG
UniProt E0Y3X0, sequence (whole entry, looked up): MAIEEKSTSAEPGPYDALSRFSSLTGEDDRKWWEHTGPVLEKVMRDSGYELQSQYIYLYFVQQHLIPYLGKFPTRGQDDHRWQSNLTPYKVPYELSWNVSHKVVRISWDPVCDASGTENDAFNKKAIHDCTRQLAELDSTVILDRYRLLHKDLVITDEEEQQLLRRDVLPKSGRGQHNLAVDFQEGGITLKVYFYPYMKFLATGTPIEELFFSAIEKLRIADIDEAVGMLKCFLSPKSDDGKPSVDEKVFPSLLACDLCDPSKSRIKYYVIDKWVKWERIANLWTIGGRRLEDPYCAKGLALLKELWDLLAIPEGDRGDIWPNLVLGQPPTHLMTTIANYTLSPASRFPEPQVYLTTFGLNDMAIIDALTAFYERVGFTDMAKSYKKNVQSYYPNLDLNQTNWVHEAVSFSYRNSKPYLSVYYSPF

B1 (enzyme) — kcat (Nc1nc2c(c(=O)[nH]1)[N+]1=CN(c3ccc(C(=O)N[C@@H](CCC(=O)O)C(=O)[O-])cc3)C[C@H]1CN2; pH 7.3, 27 °C): 142 ± 11.3 s⁻¹
B2 (enzyme R116A) — kcat (Nc1ncnc2c1ncn2[C@@H]1O[C@H](COP(=O)(O)OP(=O)(O)OP(=O)(O)O)[C@@H](O)[C@H]1O; pH 7, 45 °C): 0.0733 ± 0.005 s⁻¹
B3 (TcA) — kcat (O=c1[nH]c(=O)c2[nH]cnc2[nH]1; pH 8.3, 37 °C, apparent, added: PRPP 1 mM, MgCl2 12 mM): 0.005 ± 0.0006 s⁻¹
PGDH1 (Amborella trichopoda, UniProt U5D351) — kcat (O=C(O)[C@H](O)COP(=O)(O)O; pH 9, 25 °C, NaCl 0.1 M, apparent, added: NAD+): 20.4 ± 0.4 s⁻¹
B4 (protein) — kcat (C[C@@H](O)CC(=O)SCCNC(=O)CCNC(=O)[C@H](O)C(C)(C)COP(=O)(O)OP(=O)(O)OC[C@H]1O[C@@H](n2cnc3c(N)ncnc32)[C@H](O)[C@@H]1OP(=O)(O)O; pH 7.8, 30 °C): 508 s⁻¹
B5 (Tcur_2987 Y332L) — kcat (Nc1c(S(=O)(=O)O)cc(Nc2cccc(S(=O)(=O)CCOS(=O)(=O)O)c2)c2c1C(=O)c1ccccc1C2=O; pH 3, sigmoidal kinetics, added: H2O2 1 mM): 97 ± 1 s⁻¹
LovD A190T/A86V/C40A/C60N/D12G/G275S/H161Y/K26E/L361M/V334D (Aspergillus terreus) — kcat (CCC(C)(C)C(=O)SCCC(=O)OC; 25 °C, 10% DMSO, added: 2 mM MJA): 0.055 ± 0.001 s⁻¹
B6 (hdhb) — kcat (NC(=O)c1ccc[n+]([C@@H]2O[C@H](COP(=O)(O)OP(=O)(O)OC[C@H]3O[C@@H](n4cnc5c(N)ncnc54)[C@H](O)[C@@H]3O)[C@@H](O)[C@H]2O)c1; pH 8, 25 °C, cofactor varied): 0.023 ± 0.001 s⁻¹
B7 (Paox H64Q) — kcat (c1ccc(CNCCCCNCc2ccccc2)cc1; pH 8.6, 30 °C): 0.2 ± 0.01 s⁻¹
NotC (UniProt E0Y3X0) — kcat (CC(C)=CCOP(=O)(O)OP(=O)(O)O; pH 7.5, added: 6-hydroxy-deoxybrevianamide E 22, MgCl2 5 mM): 1.12 ± 0.0233 s⁻¹
B8 (enzyme A178R/D177A/M179H/P184R) — kcat (NC(=O)C1=CN([C@@H]2O[C@H](COP(=O)(O)OP(=O)(O)OC[C@H]3O[C@@H](n4cnc5c(N)ncnc54)[C@H](O)[C@@H]3O)[C@@H](O)[C@H]2O)C=CC1; pH 7.5, 37 °C, per site): 39 ± 6 s⁻¹
B9 (ybiA) — kcat (Nc1c(N[C@@H]2O[C@H](COP(=O)(O)O)[C@@H](O)[C@H]2O)[nH]c(=O)[nH]c1=O; pH 8, 22 °C, substrate not purified): 0.8 ± 0.1 s⁻¹
B10 — kcat (Nc1ncnc2c1ncn2[C@@H]1O[C@H](COP(=O)(O)OP(=O)(O)OP(=O)(O)O)[C@@H](O)[C@H]1O; pH 7.6, KCl 100 mM, added: glutamine 10 mM, ornithine 10 mM): 0.5 ± 0.05 s⁻¹
alanine aminopeptidase (Neisseria meningitidis, UniProt Q9JYV4) — kcat (NC(=O)Cc1cc(=O)oc2cc(NC(=O)[C@@H](N)C3Cc4ccccc4C3)ccc12; pH 7.5, 37 °C): 1.72 ± 0.08 s⁻¹
enzyme (Halomonas elongata, UniProt E1V931) — kcat (NC(=O)C1=CN([C@@H]2O[C@H](COP(=O)(O)OP(=O)(O)OC[C@H]3O[C@@H](n4cnc5c(N)ncnc54)[C@H](O)[C@@H]3O)[C@@H](O)[C@H]2O)C=CC1; pH 8, 25 °C, cofactor varied): 11.2 s⁻¹
B11 (protein) — kcat (CC(C)(COP(=O)(O)OP(=O)(O)OC[C@H]1O[C@@H](n2cnc3c(N)ncnc32)[C@H](O)[C@@H]1OP(=O)(O)O)[C@@H](O)C(=O)NCCC(=O)NCCSC(=O)Cc1cc(O)cc(O)c1; pH 7.5, 24 °C, added: O2): 0.15 ± 0.02 s⁻¹
Ptb (Listeria monocytogenes, UniProt Q8Y7B7) — kcat (CC(C)CC(=O)SCCNC(=O)CCNC(=O)[C@H](O)C(C)(C)COP(=O)(O)OP(=O)(O)OC[C@H]1O[C@@H](n2cnc3c(N)ncnc32)[C@H](O)[C@@H]1OP(=O)(O)O; pH 7.5, 25 °C, apparent): 1040 ± 12.2 s⁻¹

Excerpt of the above:
B2 (enzyme R116A) — kcat (Nc1ncnc2c1ncn2[C@@H]1O[C@H](COP(=O)(O)OP(=O)(O)OP(=O)(O)O)[C@@H](O)[C@H]1O; pH 7, 45 °C): 0.0733 ± 0.005 s⁻¹
B3 (TcA) — kcat (O=c1[nH]c(=O)c2[nH]cnc2[nH]1; pH 8.3, 37 °C, apparent, added: PRPP 1 mM, MgCl2 12 mM): 0.005 ± 0.0006 s⁻¹
